Measured values from different studies.
Each line is one published result; not all experiments were run side by side.
Target: 3-phosphoinositide-dependent protein kinase 1 (PDPK1, Homo sapiens, UniProt O15530)
One construct used (O15530 1-556): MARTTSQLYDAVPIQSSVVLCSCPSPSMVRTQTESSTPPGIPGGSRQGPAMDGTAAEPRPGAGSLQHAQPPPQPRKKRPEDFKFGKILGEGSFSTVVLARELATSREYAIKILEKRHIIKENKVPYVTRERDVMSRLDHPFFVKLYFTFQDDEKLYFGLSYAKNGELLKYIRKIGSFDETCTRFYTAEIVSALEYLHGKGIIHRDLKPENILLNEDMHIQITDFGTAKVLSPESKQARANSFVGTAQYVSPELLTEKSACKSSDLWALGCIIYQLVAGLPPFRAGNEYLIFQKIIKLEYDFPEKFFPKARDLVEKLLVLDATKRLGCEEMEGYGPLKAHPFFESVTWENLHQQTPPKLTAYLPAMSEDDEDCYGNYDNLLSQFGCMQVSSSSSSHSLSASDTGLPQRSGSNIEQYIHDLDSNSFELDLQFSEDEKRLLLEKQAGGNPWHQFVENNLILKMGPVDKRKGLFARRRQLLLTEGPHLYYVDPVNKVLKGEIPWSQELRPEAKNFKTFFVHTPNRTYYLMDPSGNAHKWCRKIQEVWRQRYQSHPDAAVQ

SMILES | test | system | setting | how to read | quantity | result
Cc1cc(Nc2cc(N3CCN(C)CC3)nc(Sc3ccc(NC(=O)C4CC4)cc3)n2)[nH]n1 | kinase activity, KinaseProfiler |  | 0.03 µM, species human | reference: control | remaining activity | 98%
COc1cc(-c2cncc3c2CN(C)Cc2cc(N4CCNCC4)ccc2-3)cc(OC)c1OC | kinase activity |  | 1 µM, human enzyme, together with: ATP 10 µM | reference: DMSO control | remaining activity | 97%
COCCNc1nc2ccc(C#CC3(O)CCCCC3)cc2n1-c1ccnc(N)n1 | enzyme activity, inhibitor, Z'-LYTE |  | 1 µM | reference: no-inhibitor control | remaining kinase activity | 13.7%
CNc1ncc2c(/C=C/C(=O)N3CCC(OC)CC3)nn(Cc3cccc(C(F)(F)F)c3)c2n1 | kinase activity, inhibitor |  | 1 µM | reference: untreated control | remaining activity | 97%
O=C1NC(=O)/C(=C/c2ccc(-c3ccc(F)cc3O)o2)S1 | enzyme activity |  | 10 µM |  | remaining activity | 97%
c1cnc2ccc(Nc3nc(NC4CC4)c4nc[nH]c4n3)cc2c1 | kinase activity, inhibitor, SelectScreen kinase profiling |  | 1 µM | reference: control | remaining activity | 77%
CC[C@@H]1[C@H](F)C(=O)N[C@@H]1COc1nccc2cc(C(N)=O)c(OC)cc12 | ATP-site probe binding, ActivX profiling, item: PDK1 | THP-1 cell lysate | 0.01 mM, Lys1 site |  | inhibition | 1.3%
COc1cc(F)ccc1-c1ncnc(Nc2cccc(C[S@](C)(=N)=O)c2)n1 | kinase activity |  | 10 µM, together with: 10 µM ATP |  | remaining activity | 106%

For quick reference, copied from above:
SMILES | test | system | setting | how to read | quantity | result
O=C1NC(=O)/C(=C/c2ccc(-c3ccc(F)cc3O)o2)S1 | enzyme activity |  | 10 µM |  | remaining activity | 97%
